Assay results of several laboratories.
Lines come from different studies, so protocols differ. Several values in a cell are separate wells, animals, samples, runs or records. ± gives the spread as reported.
UniProt Q9UM73, sequence (whole entry, unmodified, looked up): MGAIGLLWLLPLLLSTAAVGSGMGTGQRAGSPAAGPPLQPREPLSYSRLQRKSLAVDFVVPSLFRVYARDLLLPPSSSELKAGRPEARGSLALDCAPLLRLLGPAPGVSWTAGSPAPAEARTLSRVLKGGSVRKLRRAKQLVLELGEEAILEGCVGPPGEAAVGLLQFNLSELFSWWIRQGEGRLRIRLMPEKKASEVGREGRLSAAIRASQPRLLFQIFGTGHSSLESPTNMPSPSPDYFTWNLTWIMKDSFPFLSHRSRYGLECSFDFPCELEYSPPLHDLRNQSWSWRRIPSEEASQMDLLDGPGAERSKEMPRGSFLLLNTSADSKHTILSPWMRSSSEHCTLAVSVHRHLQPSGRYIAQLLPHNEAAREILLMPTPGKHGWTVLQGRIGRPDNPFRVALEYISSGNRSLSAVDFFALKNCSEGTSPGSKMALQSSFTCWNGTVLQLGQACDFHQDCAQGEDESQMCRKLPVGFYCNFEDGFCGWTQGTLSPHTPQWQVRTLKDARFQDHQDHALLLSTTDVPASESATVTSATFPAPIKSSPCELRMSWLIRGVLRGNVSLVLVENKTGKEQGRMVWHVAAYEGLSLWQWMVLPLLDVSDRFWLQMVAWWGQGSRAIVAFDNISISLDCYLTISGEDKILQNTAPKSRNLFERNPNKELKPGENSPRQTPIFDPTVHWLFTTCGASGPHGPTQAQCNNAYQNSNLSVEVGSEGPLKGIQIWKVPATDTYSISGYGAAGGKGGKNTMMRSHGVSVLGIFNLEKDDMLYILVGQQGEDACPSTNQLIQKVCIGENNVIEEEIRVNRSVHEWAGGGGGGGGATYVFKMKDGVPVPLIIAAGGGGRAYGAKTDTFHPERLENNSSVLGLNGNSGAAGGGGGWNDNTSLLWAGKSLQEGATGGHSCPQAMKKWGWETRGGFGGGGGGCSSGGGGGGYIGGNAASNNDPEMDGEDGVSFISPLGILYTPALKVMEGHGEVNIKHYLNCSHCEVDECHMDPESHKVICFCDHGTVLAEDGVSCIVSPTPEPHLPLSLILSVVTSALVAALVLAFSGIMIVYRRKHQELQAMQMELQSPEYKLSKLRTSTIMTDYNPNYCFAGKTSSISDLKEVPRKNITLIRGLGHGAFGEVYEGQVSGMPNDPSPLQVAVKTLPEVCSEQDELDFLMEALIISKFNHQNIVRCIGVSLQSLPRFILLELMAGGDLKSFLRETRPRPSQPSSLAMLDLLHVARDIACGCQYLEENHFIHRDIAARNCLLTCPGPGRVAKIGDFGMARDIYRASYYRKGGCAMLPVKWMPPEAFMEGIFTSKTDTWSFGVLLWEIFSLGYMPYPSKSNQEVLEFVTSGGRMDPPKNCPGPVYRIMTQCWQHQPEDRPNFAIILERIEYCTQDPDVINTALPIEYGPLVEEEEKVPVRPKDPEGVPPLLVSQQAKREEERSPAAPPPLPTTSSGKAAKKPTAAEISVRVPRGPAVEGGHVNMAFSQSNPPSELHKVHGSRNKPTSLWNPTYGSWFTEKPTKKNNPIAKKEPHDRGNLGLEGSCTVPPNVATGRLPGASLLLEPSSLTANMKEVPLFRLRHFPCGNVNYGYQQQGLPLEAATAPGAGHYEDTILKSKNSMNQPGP
UniProt Q9Y5S2, sequence (whole entry, looked up): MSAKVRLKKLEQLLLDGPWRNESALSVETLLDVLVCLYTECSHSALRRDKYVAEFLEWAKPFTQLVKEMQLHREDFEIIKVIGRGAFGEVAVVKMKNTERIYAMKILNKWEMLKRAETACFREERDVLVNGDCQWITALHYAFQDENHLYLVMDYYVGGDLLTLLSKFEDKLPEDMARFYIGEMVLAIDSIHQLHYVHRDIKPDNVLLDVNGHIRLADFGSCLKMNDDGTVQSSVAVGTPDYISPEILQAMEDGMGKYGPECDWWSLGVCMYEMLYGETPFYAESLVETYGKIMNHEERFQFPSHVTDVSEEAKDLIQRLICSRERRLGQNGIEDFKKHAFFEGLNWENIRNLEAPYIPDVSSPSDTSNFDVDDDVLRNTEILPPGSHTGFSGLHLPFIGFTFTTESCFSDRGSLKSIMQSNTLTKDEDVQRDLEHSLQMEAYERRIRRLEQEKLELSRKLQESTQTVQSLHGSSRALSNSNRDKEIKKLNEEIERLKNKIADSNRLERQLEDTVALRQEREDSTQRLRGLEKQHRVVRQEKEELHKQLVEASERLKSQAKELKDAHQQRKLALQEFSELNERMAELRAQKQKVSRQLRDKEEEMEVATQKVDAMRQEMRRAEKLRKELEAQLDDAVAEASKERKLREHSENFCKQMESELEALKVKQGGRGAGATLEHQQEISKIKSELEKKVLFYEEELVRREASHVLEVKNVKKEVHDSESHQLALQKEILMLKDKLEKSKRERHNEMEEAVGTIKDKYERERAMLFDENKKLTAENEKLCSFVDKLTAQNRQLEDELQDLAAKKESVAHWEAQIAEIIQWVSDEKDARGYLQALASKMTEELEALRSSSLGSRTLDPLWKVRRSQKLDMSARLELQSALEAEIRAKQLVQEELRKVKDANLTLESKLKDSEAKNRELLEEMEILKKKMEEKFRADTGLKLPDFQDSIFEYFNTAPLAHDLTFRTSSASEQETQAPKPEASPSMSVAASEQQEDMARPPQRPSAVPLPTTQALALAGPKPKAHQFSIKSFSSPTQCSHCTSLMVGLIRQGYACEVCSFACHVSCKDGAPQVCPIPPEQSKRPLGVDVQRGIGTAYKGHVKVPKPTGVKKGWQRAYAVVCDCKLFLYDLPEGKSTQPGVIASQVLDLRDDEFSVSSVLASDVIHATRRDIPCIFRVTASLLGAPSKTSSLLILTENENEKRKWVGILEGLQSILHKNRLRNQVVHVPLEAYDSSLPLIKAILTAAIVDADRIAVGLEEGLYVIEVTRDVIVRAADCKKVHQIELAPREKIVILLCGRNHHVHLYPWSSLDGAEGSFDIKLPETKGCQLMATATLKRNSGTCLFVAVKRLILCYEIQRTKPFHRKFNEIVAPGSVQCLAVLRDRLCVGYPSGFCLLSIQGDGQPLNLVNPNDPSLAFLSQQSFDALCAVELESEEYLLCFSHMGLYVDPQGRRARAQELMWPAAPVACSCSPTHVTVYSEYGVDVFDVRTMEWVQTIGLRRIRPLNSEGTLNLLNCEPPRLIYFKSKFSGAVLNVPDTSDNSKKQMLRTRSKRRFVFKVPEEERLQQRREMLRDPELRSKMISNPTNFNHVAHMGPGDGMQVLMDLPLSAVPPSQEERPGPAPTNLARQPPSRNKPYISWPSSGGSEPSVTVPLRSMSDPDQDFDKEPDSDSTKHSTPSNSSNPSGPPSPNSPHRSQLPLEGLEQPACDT
UniProt Q9H2G2, sequence (whole entry, looked up): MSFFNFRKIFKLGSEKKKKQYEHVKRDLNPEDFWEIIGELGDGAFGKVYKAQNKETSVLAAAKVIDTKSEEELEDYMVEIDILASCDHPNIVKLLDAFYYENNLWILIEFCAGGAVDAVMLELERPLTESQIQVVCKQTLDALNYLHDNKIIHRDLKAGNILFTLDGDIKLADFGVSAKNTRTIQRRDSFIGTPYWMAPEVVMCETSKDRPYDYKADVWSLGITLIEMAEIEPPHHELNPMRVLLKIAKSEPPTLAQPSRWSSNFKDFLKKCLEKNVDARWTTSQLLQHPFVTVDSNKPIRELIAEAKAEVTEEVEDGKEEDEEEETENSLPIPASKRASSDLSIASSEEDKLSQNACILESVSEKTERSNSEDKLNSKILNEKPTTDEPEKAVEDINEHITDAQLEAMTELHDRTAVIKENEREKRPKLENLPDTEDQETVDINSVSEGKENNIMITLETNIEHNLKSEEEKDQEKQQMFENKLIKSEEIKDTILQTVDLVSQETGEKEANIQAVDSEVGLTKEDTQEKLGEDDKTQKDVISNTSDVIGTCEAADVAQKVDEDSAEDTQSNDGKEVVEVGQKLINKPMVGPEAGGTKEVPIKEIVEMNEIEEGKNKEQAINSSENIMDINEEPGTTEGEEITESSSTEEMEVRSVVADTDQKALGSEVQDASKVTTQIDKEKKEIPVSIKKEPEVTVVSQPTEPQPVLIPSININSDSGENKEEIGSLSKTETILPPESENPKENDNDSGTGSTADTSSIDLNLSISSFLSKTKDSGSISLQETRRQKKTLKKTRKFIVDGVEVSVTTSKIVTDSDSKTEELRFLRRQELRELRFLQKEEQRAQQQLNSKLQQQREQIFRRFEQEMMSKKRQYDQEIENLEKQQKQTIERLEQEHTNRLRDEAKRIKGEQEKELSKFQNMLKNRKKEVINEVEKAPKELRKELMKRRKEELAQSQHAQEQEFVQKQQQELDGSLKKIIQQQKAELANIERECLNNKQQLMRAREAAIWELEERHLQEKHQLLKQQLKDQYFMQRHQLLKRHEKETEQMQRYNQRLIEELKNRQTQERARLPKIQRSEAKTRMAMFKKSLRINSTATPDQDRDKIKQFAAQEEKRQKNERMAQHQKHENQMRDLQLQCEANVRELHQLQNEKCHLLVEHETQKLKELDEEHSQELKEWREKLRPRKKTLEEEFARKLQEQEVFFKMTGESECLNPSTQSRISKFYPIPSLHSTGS

| SMILES | tested on | test | system | conditions | scale | endpoint | value |
| --- | --- | --- | --- | --- | --- | --- | --- |
| CC[C@H](C)[C@H](NC(=O)[C@H](CO)NC(=O)[C@H](Cc1ccc(O)cc1)NC(=O)[C@H](Cc1ccc(O)cc1)NC(=O)[C@H](CC(N)=O)NC(=O)CNC(=O)[C@H](CO)NC(=O)[C@H](Cc1ccc(O)cc1)NC(=O)[C@H](CO)NC(=O)[C@H](CO)NC(=O)[C@H](CC(N)=O)NC(=O)COCCOCCNC(=O)CN1CCN(CC(=O)O)CCN(CC(=O)O)CCN(CC(=O)O)CC1)C(=O)N[C@@H](CC(C)C)C(N)=O [copper-64 labelled] |  | dynamic PET | KPC mouse, pancreatic cancer model, tumor | intravenous, 0.9 min, 49 days after tamoxifen |  | tumour uptake | 13.8 %ID/mL |
| CN1Cc2cc(Cl)ccc2-n2c(nnc2C2CCN(c3cccc([18F])n3)CC2)C1 |  |  | C57BL/6 mouse male, adrenal gland | intravenous, 3.7 MBq, 5 min |  | tissue uptake | 10.3 ± 5.46 %ID/g |
| CCCCC[C@H]1C(=O)N(C)[C@H](C)C(=O)N(C)[C@@H](CCCCC)C(=O)N(C)[C@H](C)C(=O)N(C)[C@@H](CCCCC)C(=O)N(C)[C@H](C)C(=O)N(C)[C@@H](CCCCC)C(=O)N(C)[C@H](C)C(=O)N1C |  | PAMPA |  | 500 µM, pH 7.4, UV/ELSD/MS detection |  | log Papp | -5.66 |
| C=CCN1CCC23c4c5ccc(OC(=O)c6ccccc6)c4OC2C(=O)CCC3(O)C1C5 (stereo not drawn) |  |  | human plasma | 4 h |  | remaining compound | 34.4% and 36% and 35% |
| CC(C)[C@H]1NC(=O)C[C@H]2/C=C/CCSSC[C@@H](NC1=O)C(=O)N[C@H](Cc1cccc3ccccc13)C(=O)NCC(=O)O2 | ALK tyrosine kinase receptor (ALK, Homo sapiens, UniProt Q9UM73, R1275Q) | enzyme activity, inhibitor |  | 10 µM |  | inhibition | -6.6% |
| CCOc1ccccc1-n1c(CN2CCNCC2)nc2ccccc2c1=O |  |  | C57BL/6 mouse, male, plasma | oral, 6 mg/kg |  | AUC(0-t) | 2.12 µM·h |
| CC[C@H](C)[C@H](NC(=O)[C@H](CCCCN)NC(=O)CNC(=O)[C@H](CC(C)C)NC(=O)[C@H](Cc1ccccc1)NC(=O)[C@H](CCCCN)NC(=O)[C@H](CO)NC(=O)[C@H](Cc1ccccc1)NC(=O)[C@H](Cc1c[nH]c2ccccc12)NC(=O)[C@H](CCC(N)=O)NC(=O)[C@@H](NC(=O)[C@H](Cc1ccccc1)NC(=O)CCCCCNC(=O)CN1CCN(CC(=O)O)CCN(CC(=O)O)CCN(CC(=O)O)CC1)C(C)C)C(=O)N[C@@H](CCC(=O)O)C(=O)N1CCC[C@H]1C(=O)N[C@@H](CC(=O)O)C(=O)N[C@H](C(=O)N[C@@H](CO)C(=O)N[C@@H](CCC(N)=O)C(=O)N[C@H](C(=O)N[C@@H](CCC(N)=O)C(=O)N[C@@H](CC(=O)O)C(=O)N1CCC[C@H]1C(=O)N[C@@H](CC(N)=O)C(=O)N[C@@H](CC(=O)O)C(=O)N[C@@H](CCC(N)=O)C(=O)N[C@@H](Cc1ccc(O)cc1)C(=O)N[C@@H](CCC(=O)O)C(=O)N1CCC[C@H]1C(=O)N[C@@H](Cc1ccccc1)C(=O)O)C(C)C)C(C)C [copper-64 labelled] |  | dynamic PET | mouse both sexes, CT26 tumour, untreated, tumour | intravenous, 100 µCi/mouse, 630 s |  | SUVmean | 0.75 SUV |
| COC(=O)C[C@H](NC(=O)[C@H](C)NC(=O)[C@@H](NC(=O)[C@H](CC(=O)OC)NC(=O)[C@@H](NC(=O)c1ccc2ccccc2n1)C(C)C)C(C)C)C(=O)COc1c(F)cccc1F |  | general toxicity | dog | intravenous, multiple doses |  | NOAEL | 3 mg/kg/day |
| O=C1NC2(CC2)COc2ncc(F)cc2[C@H]2COCCN2c2ccn3ncc1c3n2 |  |  | Sprague-Dawley rat, female, kidneys | oral, 20 mg/kg/day, 4 weeks dosing, end of recovery |  | organ-to-brain weight ratio | 108 ± 8.55% |
| C[C@H](O)[C@@H](NC(=O)[C@H]1CCCN1C(=O)[C@@H](CCCCN)NC(=O)[C@@H](CO)NC(=O)[C@@H](Cc1ccc(O)cc1)NC(=O)[C@@H](CC(N)=O)NC(=O)CCOCCOCCOCCNC(=O)CN1CCN(CC(=O)O)CCN(CC(=O)O)CCN(CC(=O)O)CC1)C(=O)N[C@H](CC(=O)O)C(=O)N[C@H](CCCNC(=N)N)C(=O)N[C@H](CCC(N)=O)C(=O)N[C@H](Cc1ccc(O)cc1)C(=O)N[C@H](Cc1c[nH]cn1)C(=O)N[C@H](Cc1ccccc1)C(N)=O [copper-64 labelled] |  |  | C57BL/6J mice, bone | intravenous, 1.85 MBq, 1.333 h, radiolabelled |  | tissue uptake | 0.19 ± 0.02 %ID/g |
| O=C1NC(=O)c2c1c1cc(F)c[n+]3c1c1c2c2cc(O)ccc2[n]1[Ru-4]312([N]=C=S)[S+]3CC[S+]1CC[S+]2CC3 (stereo not drawn) | ALK tyrosine kinase receptor (ALK, Homo sapiens, UniProt Q9UM73) | enzyme activity |  | 100 nM, human enzyme, with: 10 µM ATP | reference: untreated | remaining activity | 30% |
| CCc1nn(C)c2nc(-c3ccc(C(=O)O)cc3)nc(NCc3ccccc3)c12 |  |  | male CD-1 mouse, plasma | intravenous, 1 mg/kg, 4.8 min |  | concentration | 5320 ng/mL |
| CC(C)C[C@@H](NC(=O)[C@@H](CCCNC(=N)N)NC(=O)[C@@H](Cc1c[nH]cn1)NC(=O)[C@@H](Cc1c[nH]c2ccccc12)NC(=O)[C@@H](Cc1c[nH]cn1)NC(=O)[C@@H](Cc1ccccc1)NC(=O)[C@H](NC(=O)[C@@H](Cc1ccc(O)cc1)NC(=O)CNC(=O)CNC(=O)CCOCCOCCOCCNC(=O)CN1CCN(CC(=O)O)CCN(CC(=O)O)CC1)[C@H](C)O)C(=O)N[C@H](CC(N)=O)C(=O)N1CCC[C@@H]1C(=O)O [gallium-68 labelled] |  | OLINDA/EXM | adult female human, Gallbladder wall | extrapolated from C57BL/6 mice |  | organ absorbed dose | 0.0119 ± 0.000115 mSv/MBq |
| CC(C)[C@@H]1NC(=O)CNC(=O)[C@H](CC(N)=O)NC(=O)[C@H](CCCNC(=N)N)NC(=O)[C@H](Cc2ccc(O)cc2)NC(=O)[C@H](C(C)C)NC(=O)[C@@H](NC(=O)[C@@H](NC(=O)[C@H](CC(N)=O)NC(=O)[C@H](Cc2c[nH]c3ccccc23)NC(=O)[C@H](C)NC(=O)[C@H](Cc2ccccc2)NC(=O)CNC(=O)[C@H](CCCCN)NC(=O)[C@H](Cc2ccccc2)NC(=O)[C@H](Cc2ccccc2)NC(=O)[C@H](CCCCN)NC(=O)OCC2c3ccccc3-c3ccccc32)C(C)C)CSSC[C@@H](C(=O)N[C@@H](Cc2c[nH]cn2)C(=O)N[C@@H](CCCNC(=N)N)C(=O)N[C@@H](CCCNC(=N)N)C(=O)N[C@@H](C)C(=O)N[C@@H](CC(N)=O)C(N)=O)NC(=O)[C@H](C(C)C)NC(=O)[C@H](CCCNC(=N)N)NC1=O |  |  | ICR mouse | ip, 5 mg/kg | direction not given | stimulus response score | 0 |
| C(#Cc1cncc(OC[C@@H]2CCN2)c1)c1ccccc1 |  |  | male Sprague-Dawley rat, plasma | oral, 75 mg/kg, 7 h |  | concentration | 250 ng/mL |
| N=C(N)NCCC[C@H](NC(=O)[C@H](CCCNC(=N)N)NC(=O)[C@H](CCCNC(=N)N)NC(=O)[C@H](CCC(N)=O)NC(=O)[C@H](CCCNC(=N)N)NC(=O)[C@H](CCCNC(=N)N)NC(=O)[C@H](CCCCN)NC(=O)[C@H](CCCCN)NC(=O)[C@H](CCCNC(=N)N)NC(=O)CNC(=O)[C@H](Cc1ccc(O)cc1)NC(=O)[C@H](Cc1ccccc1)NC(=O)[C@H](Cc1ccccc1)NC(=O)[C@H](Cc1ccccc1)NC(=O)Cc1ccc2ccccc2c1)C(=O)O |  |  | C57BL/6 mice | intraperitoneal, 5 mg/kg, 12 h | direction not given | health score | 5 |
| COc1ccccc1-c1n[nH]c2nc(NC3CCN(C(=O)Cc4ccc(F)cc4F)CC3)ncc12 |  | bead binding, competition bead pull-down, measured: LINJ.19.1560 | Leishmania donovani extract | 10 µM | reference: vehicle | relative abundance | 1.01 |
| CSCC[C@H](N)C(=O)N[C@@H](C)C(=O)N[C@@H](Cc1c[nH]c2ccccc12)C(=O)N[C@@H](Cc1c[nH]cn1)C(=O)N[C@@H](CC(=O)O)C(=O)N[C@@H](CC(=O)O)C(=O)N[C@@H](CCC(=O)O)C(=O)N[C@@H](CCC(=O)O)C(=O)N[C@@H](Cc1ccccc1)C(=O)N[C@@H](C)C(=O)N[C@@H](CCCNC(=N)N)C(=O)N[C@@H](CCCNC(=N)N)C(=O)N[C@@H](CCCNC(=N)N)C(=O)N[C@@H](CCCNC(=N)N)C(=O)NCCCCCC(=O)NCCCCC(NC(=O)CCCCCNC(=O)[C@H](CCCNC(=N)N)NC(=O)[C@H](CCCNC(=N)N)NC(=O)[C@H](CCCNC(=N)N)NC(=O)[C@H](CCCNC(=N)N)NC(=O)[C@H](C)NC(=O)[C@H](Cc1ccccc1)NC(=O)[C@H](CCC(=O)O)NC(=O)[C@H](CCC(=O)O)NC(=O)[C@H](CC(=O)O)NC(=O)[C@H](CC(=O)O)NC(=O)[C@H](Cc1c[nH]cn1)NC(=O)[C@H](Cc1c[nH]c2ccccc12)NC(=O)[C@H](C)NC(=O)[C@@H](N)CCSC)C(=O)NCCCCC(NC(=O)C(CCCCNC(=O)CCCCCNC(=O)[C@H](CCCNC(=N)N)NC(=O)[C@H](CCCNC(=N)N)NC(=O)[C@H](CCCNC(=N)N)NC(=O)[C@H](CCCNC(=N)N)NC(=O)[C@H](C)NC(=O)[C@H](Cc1ccccc1)NC(=O)[C@H](CCC(=O)O)NC(=O)[C@H](CCC(=O)O)NC(=O)[C@H](CC(=O)O)NC(=O)[C@H](CC(=O)O)NC(=O)[C@H](Cc1c[nH]cn1)NC(=O)[C@H](Cc1c[nH]c2ccccc12)NC(=O)[C@H](C)NC(=O)[C@@H](N)CCSC)NC(=O)CCCCCNC(=O)[C@H](CCCNC(=N)N)NC(=O)[C@H](CCCNC(=N)N)NC(=O)[C@H](CCCNC(=N)N)NC(=O)[C@H](CCCNC(=N)N)NC(=O)[C@H](C)NC(=O)[C@H](Cc1ccccc1)NC(=O)[C@H](CCC(=O)O)NC(=O)[C@H](CCC(=O)O)NC(=O)[C@H](CC(=O)O)NC(=O)[C@H](CC(=O)O)NC(=O)[C@H](Cc1c[nH]cn1)NC(=O)[C@H](Cc1c[nH]c2ccccc12)NC(=O)[C@H](C)NC(=O)[C@@H](N)CCSC)C(N)=O (stereo partly drawn) |  |  | C57BL/6 mouse female, spleen | dose not given, 3 h | reference: total | tissue distribution | 0.7% and 0.79% and 0.78% |
| CCCC[C@H]1C(=O)N(C)[C@@H](CCCC)C(=O)N[C@@H](CCCNC(=O)CN2CCN(CC(=O)O)CCN(CC(=O)O)CCN(CC(=O)O)CC2)C(=O)N[C@H](C(=O)NCC(N)=O)CSCC(=O)N[C@@H](Cc2ccc(O)cc2)C(=O)N(C)[C@@H](C)C(=O)N[C@@H](CC(N)=O)C(=O)N2CCC[C@H]2C(=O)N[C@@H](Cc2c[nH]cn2)C(=O)N[C@@H](CC(C)C)C(=O)N(C)CC(=O)N[C@@H](Cc2c[nH]c3ccccc23)C(=O)N[C@@H](CO)C(=O)N[C@@H](Cc2c[nH]c3ccccc23)C(=O)N1C [gallium-68 labelled] |  |  | NOD/SCID mice with CHO-hPD-L1 xenograft, heart | 60 min post injection |  | tissue uptake | 5.96 ± 2.76 %ID/g |
| O=c1c(-c2cnn(-c3ccccc3)c2)c(C(F)(F)F)oc2c(O)c(O)ccc12 |  |  | Caco-2 |  |  | efflux ratio | 1.95 |
| CS(C)(=O)=Nc1ccc(-c2ccc(-c3nc4cc(O[C@@H]5CO[C@H]6[C@@H]5OC[C@H]6O)[nH]c4cc3F)cc2)cc1 | Serine/threonine-protein kinase MRCK beta (CDC42BPB, Homo sapiens, UniProt Q9Y5S2) | enzyme activity, inhibitor |  | 10 µM |  | inhibition | 1% |
| CC(C)(CCCC/C=C/CCCCCC(C)(C)C(=O)O)C(=O)O |  |  | beagle dog, both sexes | oral, dose not given, 1 h |  | plasma concentration | 27500 ng/mL |
| C=Cc1c(C)c2cc3nc(c(CC(=O)[O-])c4[n-]c(cc5nc(cc1[n-]2)C(C)=C5CC)c(C)c4C(=O)[O-])C(CCC(=O)[O-])C3C.[Cu+2].[Na+].[Na+].[Na+] (stereo not drawn) |  |  | Wistar rat, male | oral, 1000 mg/kg daily, 28 days |  | serum AST | 135 ± 31.5 U/L |
| CN(C)[C@H]1C[C@@]23CC[C@@]4(O2)C(=CC[C@]2(C)[C@@H](c5ccc6ccncc6c5)CC[C@H]24)C=C3[C@@H](O)[C@@H]1O | STE20-like serine/threonine-protein kinase (SLK, Homo sapiens, UniProt Q9H2G2) | ATP probe labelling, inhibitor, KiNativ profiling |  | 1 µM |  | inhibition | 1.5% |

A few entries again:
| SMILES | tested on | test | system | conditions | scale | endpoint | value |
| --- | --- | --- | --- | --- | --- | --- | --- |
| CN(C)[C@H]1C[C@@]23CC[C@@]4(O2)C(=CC[C@]2(C)[C@@H](c5ccc6ccncc6c5)CC[C@H]24)C=C3[C@@H](O)[C@@H]1O | STE20-like serine/threonine-protein kinase (SLK, Homo sapiens, UniProt Q9H2G2) | ATP probe labelling, inhibitor, KiNativ profiling |  | 1 µM |  | inhibition | 1.5% |
| CC[C@H](C)[C@H](NC(=O)[C@H](CO)NC(=O)[C@H](Cc1ccc(O)cc1)NC(=O)[C@H](Cc1ccc(O)cc1)NC(=O)[C@H](CC(N)=O)NC(=O)CNC(=O)[C@H](CO)NC(=O)[C@H](Cc1ccc(O)cc1)NC(=O)[C@H](CO)NC(=O)[C@H](CO)NC(=O)[C@H](CC(N)=O)NC(=O)COCCOCCNC(=O)CN1CCN(CC(=O)O)CCN(CC(=O)O)CCN(CC(=O)O)CC1)C(=O)N[C@@H](CC(C)C)C(N)=O [copper-64 labelled] |  | dynamic PET | KPC mouse, pancreatic cancer model, tumor | intravenous, 0.9 min, 49 days after tamoxifen |  | tumour uptake | 13.8 %ID/mL |
